Literature values as cited in several papers.
Each line is one published result; not all experiments were run side by side. Several values in a cell are separate wells, animals, samples, runs or records. Numbers after ± are the reported error.

SMILES | tested on | test | system | conditions | measurement | value
Nc1nc2sc(CCCc3ccc(C(=O)N[C@@H](CCC(=O)O)C(=O)O)cc3)cc2c(=O)[nH]1 | CHO PC43-10 (human RFC) | cell growth |  |  | IC50 | > 1 µM
COc1cc2c(cc1OC)C(c1c[nH]c3ccccc13)NCC2 (stereo not shown) | COLO 205 | cytotoxicity |  |  | IC50 | 47.4 µM
Cc1ccc(NC(=O)c2c[nH]c3ccc(Cl)cc3c2=O)cc1 | ACP-03 |  |  |  | IC50 | 1.92 µM
O=C1N=C(Nc2ccccc2)S/C1=C1\C(=O)Nc2ccc([N+](=O)[O-])cc21 | MCF7 |  |  |  | IC50 | 40 ± 0.002 µM
COc1ccc(Nc2nc(Nc3ccc(OCC[18F])cc3)ncc2Br)cc1 |  |  | S180 tumour-bearing mice, brain | intravenous, 15 min | tissue uptake | 0.89 ± 0.18 %ID/g
O=C(O)c1ccc([C@H]2C[C@H]3[C@@H](N2)[C@H](c2cccc(Cl)c2F)[C@]2(C(=O)Nc4cc(Cl)ccc42)N3CC2CC2)cc1 | SK-OV-3 | cell viability, CellTiter-Glo |  |  | IC50 | > 25 µM
O=C1NC2CCCCC2NC1c1c[nH]c2ccccc12 (stereo not shown) | MRC-5 fibroblasts | cytotoxicity |  |  | IC50 | > 100 µM
O=c1oc2ccccc2cc1-c1cc(-c2ccc(Cl)cc2)nc(Cc2ccc(F)cc2)n1 | A549 |  |  |  | IC50 | 2.15 µM
c1ccc2c(c1)CCNC2c1c[nH]c2ncccc12 (stereo not shown) | COLO 205 | cytotoxicity |  |  | IC50 | 64.3 µM
O=C1/C(=C\c2ccc([N+](=O)[O-])cc2)S/C(=N\c2ccccc2)N1Cc1ccccc1Cl | HepG2 |  |  |  | IC50 | 75 µM
Nc1nc2[nH]c(CCCc3ccc(C(=O)N[C@@H](CCC(=O)O)C(=O)O)cc3)cc2c(=O)[nH]1 | CHO PC43-10 (human RFC) | cell growth |  |  | IC50 | 0.649 µM
c1cnc2[nH]cc(C3NCCc4sccc43)c2c1 (stereo not shown) | COLO 205 | cytotoxicity |  |  | IC50 | > 100 µM
COc1ccc(-c2cc(-c3cc4ccccc4oc3=O)nc(Cc3ccc(F)cc3)n2)cc1 | MDA-MB-231 |  |  |  | IC50 | 2.23 µM
Cc1ccc(Cn2cc(CNC3=C(Cl)C(=O)c4cccnc4C3=O)nn2)cc1 | KB-VIN | cell growth |  |  | IC50 | 6.81 µM
CC(C)c1ccc(NC(=O)Nc2ccc(NC(=O)c3c[nH]c4ccc(Cl)cc4c3=O)cc2)cc1 | HepG2 |  |  |  | IC50 | 1.6 µM
Nc1nc2[nH]c(CCCCCCCC(=O)N[C@@H](CCC(=O)O)C(=O)O)cc2c(=O)[nH]1 | CHO PC43-10 (human RFC) | cell growth |  |  | IC50 | > 1 µM
CNCCN(C)Cc1ccc(-c2ccc(C(F)(F)F)cc2)o1 | MCF7 | cell viability |  |  | IC50 | 61.1 µM
Nc1nc2[nH]c(CCCCCCCCC(=O)N[C@@H](CCC(=O)O)C(=O)O)cc2c(=O)[nH]1 | CHO RT16 (human FRα) | cell growth |  | no added folic acid | IC50 | 0.0123 µM
NC(=O)c1cn([C@H]2O[C@@H](CO)[C@H](O)[C@@H]2O)c2ccc(Nc3ccccc3)cc2c1=O | K562 |  |  |  | IC50 | 64.1 µM
c1ccc2c(c1)CCNC2c1c[nH]c2cccnc12 (stereo not shown) | MRC-5 fibroblasts | cytotoxicity |  |  | IC50 | > 100 µM
C/C=C/Cn1cc(-c2ccc(C(=O)N3CCNCC3)c(Cl)c2)n2cncc2c1=O | EOL-1 | cell growth |  |  | IC50 | 1.76 µM
c1ccc2c3c([nH]c2c1)C(c1c[nH]c2ncccc12)NCC3 (stereo not shown) | COLO 205 | cytotoxicity |  |  | IC50 | 50 to 80 µM and 66.8 µM
Cc1ccc(/N=C2\SC(C3C(=O)Nc4ccc(C)cc43)C(=O)N2c2ccc(C)cc2)cc1 (stereo not shown) | WI-38 |  |  |  | IC50 | 49.1 ± 1.9 µM
c1ccc2c(c1)CCNC2c1c[nH]c2ccncc12 (stereo not shown) | MRC-5 fibroblasts | cytotoxicity |  |  | IC50 | > 100 µM
COc1ccc(-c2cc(-c3cc4ccccc4oc3=O)nc3nc(C)[nH]c(=O)c23)cc1 | HCT-116 |  |  |  | IC50 | 6.11 ± 0.82 µM
Nc1nc2[nH]c(CCCCc3ccc(C(=O)N[C@@H](CCC(=O)O)C(=O)O)s3)cc2c(=O)[nH]1 | CHO RT16 (human FRα) | cell growth |  | no added folic acid | IC50 | 0.0018 µM
c1ccc2c(c1)CCNC2c1c[nH]c2cnccc12 (stereo not shown) | COLO 205 | cytotoxicity |  |  | IC50 | > 100 µM
CCn1nccc1C1CCCN1S(=O)(=O)c1cc(C)c(C)cc1C (stereo not shown) | human monocytes | phagocytosis of anti-D RBCs |  |  | IC50 | > 5 µM
